# Assay results collected from several papers.
# Each line is one published result; not all experiments were run side by side. ± gives the spread as reported.
# Sequence of UniProt P11509 (whole entry, looked up): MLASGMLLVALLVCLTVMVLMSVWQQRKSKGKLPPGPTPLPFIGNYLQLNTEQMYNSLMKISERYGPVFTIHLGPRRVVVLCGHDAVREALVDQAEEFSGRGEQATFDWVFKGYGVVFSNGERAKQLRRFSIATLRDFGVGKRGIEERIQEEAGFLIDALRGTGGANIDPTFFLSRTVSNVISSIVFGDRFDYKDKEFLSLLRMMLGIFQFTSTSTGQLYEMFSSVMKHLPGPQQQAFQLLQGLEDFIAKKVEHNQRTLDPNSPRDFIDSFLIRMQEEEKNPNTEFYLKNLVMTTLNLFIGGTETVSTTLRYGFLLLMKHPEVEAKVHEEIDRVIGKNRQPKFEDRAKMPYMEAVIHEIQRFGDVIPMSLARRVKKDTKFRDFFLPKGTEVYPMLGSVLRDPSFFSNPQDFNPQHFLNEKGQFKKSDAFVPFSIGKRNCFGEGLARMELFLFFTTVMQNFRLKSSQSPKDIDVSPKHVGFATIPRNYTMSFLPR
# Sequence of UniProt P08684 (whole entry, looked up): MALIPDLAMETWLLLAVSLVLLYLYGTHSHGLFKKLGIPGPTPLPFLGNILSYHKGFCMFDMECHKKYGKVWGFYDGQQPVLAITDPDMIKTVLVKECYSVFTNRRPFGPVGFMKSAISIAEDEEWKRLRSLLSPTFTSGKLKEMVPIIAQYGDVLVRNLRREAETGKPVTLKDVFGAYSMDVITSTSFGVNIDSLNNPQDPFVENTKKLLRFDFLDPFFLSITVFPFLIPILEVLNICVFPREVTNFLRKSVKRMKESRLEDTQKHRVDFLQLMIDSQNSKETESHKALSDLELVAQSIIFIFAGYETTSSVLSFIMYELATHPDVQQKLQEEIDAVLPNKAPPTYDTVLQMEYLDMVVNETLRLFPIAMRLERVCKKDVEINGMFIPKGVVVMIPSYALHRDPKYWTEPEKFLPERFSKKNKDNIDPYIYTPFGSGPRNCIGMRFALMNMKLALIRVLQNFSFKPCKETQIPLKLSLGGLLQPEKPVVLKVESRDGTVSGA
Compound,tested on,assay,test system,conditions,scale,quantity,result
Cc1cc(C(=O)NC(C)(C)COc2cccc3c2C(N)=NS(=O)(=O)N3)cc(C)n1,Salmonella typhimurium,"Ames test, initial",TA100,5.00 µg/plate,relative to: solvent control,revertant ratio,1.1
C[C@]1(CO)Cc2ncn(-c3ccc(C#N)c(Cl)c3)c2C(=O)O1,,,healthy humans,"10 mg, fasted",,drug-related Somnolence incidence,0%
CC(O)(CS(=O)(=O)c1ccc(F)cc1)C(=O)Nc1ccc(C#N)c(C(F)(F)F)c1 (stereo not shown),RAW264.7,resazurin,DMEM with 10% FBS,,,CC50,> 100 µM
CC(=O)O[C@H]1C=C[C@H]2[C@H]3Cc4ccc(O)c5c4[C@@]2(CCN3C)[C@H]1O5,,,rat whole blood,"500 nM, 4 freeze-thaw cycles",,stability bias,4.25%
COc1ncnn2ccc(-c3cnc4nc(C)n(Cc5nnc([C@@H](C)F)o5)c4c3)c12,,,human patients,"oral, dose not given, grade 1 adverse drug reaction",,incidence of Dysgeusia,7.1%
CCCOc1ccc(C(=O)CCN2CCCCC2)cc1,African green monkey cells,,,5 days,,CC50,31.6 µM
CN1CC[C@@H](c2c(O)cc(O)c3c(=O)cc(-c4ccc(C(F)(F)F)cc4Cl)oc23)[C@@H]1CO,,refers to: Pyrexia,AML,"oral, 100 mg, intermittent dosing",,patients with adverse event,66.7%
O=c1ccc2ccccc2o1,NHEK,,keratinocyte growth medium,"concentration not given, 1 h, ER stress panel",,"BiP induction, chance of response",0.05%
[Cl-].[Cl-].[Pt+2].[Ru+2].c1ccc(-c2nccnc2-c2ccccn2)nc1.c1cnc2c(c1)ccc1cccnc12.c1cnc2c(c1)ccc1cccnc12,Danio rerio,,embryos,"75 µM, 12 h",,survival rate,63.3 ± 3.3%
O=C(NCc1cccnc1)Nc1ccc([N+](=O)[O-])cc1,mouse DRG neurons,neurite degeneration,,"50 µM, 24 h",relative to: vehicle,degeneration index difference,50.6
CO[C@H]1/C=C/O[C@@]2(C)Oc3c(C)c(O)c4c(O)c(c(/C=N/N5CCN(C6CCCC6)CC5)c(O)c4c3C2=O)NC(=O)/C(C)=C\C=C\[C@H](C)[C@H](O)[C@@H](C)[C@@H](O)[C@@H](C)[C@H](OC(C)=O)[C@@H]1C,Syrian hamster cells,,,,,CC50,128 µM
COC(=O)[C@H]1[C@@H](OC(=O)c2ccccc2)C[C@@H]2CC[C@H]1N2C,,,rat whole blood,"500 nM, 4 freeze-thaw cycles",,stability bias,-3.71%
C[C@H](Cc1ccc(O)c(O)c1)[C@@H](C)Cc1ccc(O)c(O)c1,African green monkey cells,,,5 days,,CC50,37.2 µM
O=[N+]([O-])c1ccc(N2CCC(NCCC(O)c3ccc(F)c4ccccc34)CC2)c(C(F)(F)F)c1 (stereo not shown),Salmonella typhimurium,"genotoxicity, SOS/umu test",TA1535/pSK1002,"0.031 mg/mL, 4 h, with S9, full range",,induction factor,0.87
COc1cccc(-c2n[nH]c(SCc3ccccn3)n2)c1OC,Salmonella typhimurium,"Ames test, plate incorporation",TA98,"0.50 mg/plate, without S9",,revertant colonies per plate,22
O=C1c2c(O)c(=O)ccn2N([C@@H]2c3ccccc3SCc3c2ccc(F)c3F)[C@@H]2COCCN12,,,"BALB/c mice, plasma","oral, 50 mg/kg baloxavir marboxil, 10 h",,plasma concentration,43.6 ng/mL
CC(=O)Oc1ccc2c3c1O[C@H]1[C@@H](OC(C)=O)C=C[C@H]4[C@@H](C2)N(C)CC[C@@]341,,,"rat, whole blood","10 nM, 4 h, room temperature, bench-top storage",,stability bias,-13.2%
CC(=O)c1ccc2c(c1)N(CCCN1CCC(CCO)CC1)c1ccccc1S2,African green monkey cells,,,5 days,,CC50,12.2 µM
Cc1ncc2n1-c1ccc(Cl)cc1C(c1ccccc1F)=NC2,"Cytochrome P450 3A4 (CYP3A4, Homo sapiens, UniProt P08684)",,"human, plasma","oral, 2 mg, day 1, alone, arithmetic mean",,Cmax,8.03 ng/mL
COC(=O)C1=C(C)NC(C)=C(C(=O)OC2CCCN(Cc3ccccc3)C2)C1c1cccc([N+](=O)[O-])c1 (stereo not shown),African green monkey cells,,,5 days,,CC50,14.8 µM
Cc1ncc2n1-c1ccc(Cl)cc1C(c1ccccc1F)=NC2,,,"wild-type mice, plasma","intravenous, 0.3 mg/kg, added: 14-day BC 500 mg/kg",,clearance,149 ± 27 mL/min
CCC1(CC)C(=O)NCC(C)C1=O (stereo not shown),African green monkey cells,,,5 days,,CC50,> 25.1 µM
CN1[C@H]2CC[C@@H]1[C@@H](C(=O)O)[C@@H](OC(=O)c1ccccc1)C2,,,"rat, whole blood","1000 nM, 4 freeze-thaw cycles",,stability bias,7.04%
[Cl-].[Cl-].[Pt+2].[Ru+2].c1ccc(-c2nc3ccccc3nc2-c2ccccn2)nc1.c1cnc2c(c1)ccc1cccnc12.c1cnc2c(c1)ccc1cccnc12,Danio rerio,,embryos,"15 µM, 12 h",,survival rate,93.3 ± 2.1%
O=C1c2c(O)cccc2Cc2cccc(O)c21,African green monkey cells,,,5 days,,CC50,> 100 µM
COC(=O)[C@H]1[C@@H](OC(=O)c2ccccc2)C[C@@H]2CC[C@H]1N2,,,rat whole blood,"500 nM, 4 months, -80 °C",,stability bias,14.8%
COc1ccccc1OCCNCC(O)COc1cccc2[nH]c3ccccc3c12 (stereo not shown),African green monkey cells,,,5 days,,CC50,17 µM
CC(C)CC(=O)OC[C@H]1O[C@@](C#N)(c2ccc3c(N)ncnn23)[C@H](O)[C@@H]1O,"Cytochrome P450 2A6 (CYP2A6, Homo sapiens, UniProt P11509)",metabolic stability,recombinant enzyme,1 µM,,intrinsic clearance,0 µL/min/pmol
CN1CC[C@]23c4c5ccc(O)c4O[C@H]2[C@@H](O[C@@H]2O[C@H](C(=O)O)[C@@H](O)[C@H](O)[C@H]2O)C=C[C@H]3[C@H]1C5,,,"rat, whole blood","10 nM, 4 months, -80 °C, long-term storage",,stability bias,-11.8%
COc1cc2c(Oc3ccc4[nH]c(C)cc4c3F)ccnc2cc1OCC1(N)CC1,,,paediatric recurrent refractory sarcoma,12 mg,,Rash incidence,18.2%
CN1CC[C@]23c4c5ccc(O[C@@H]6O[C@H](C(=O)O)[C@@H](O)[C@H](O)[C@H]6O)c4O[C@H]2[C@@H](O)C=C[C@H]3[C@H]1C5,,,"rat, whole blood","1000 nM, 4 freeze-thaw cycles",,stability bias,-12.8%
CN1CCN(CCCN2c3ccccc3Sc3ccc(C(F)(F)F)cc32)CC1,African green monkey cells,,,5 days,,CC50,7.94 µM
COC(=O)[C@@H]1[C@H]2CC[C@@H](C[C@@H]1O)N2C,,,rat whole blood,"500 nM, 4 h, room temperature",,stability bias,7.18%
CO[C@H]1C[C@@H]2CC[C@@H](C)[C@@](O)(O2)C(=O)C(=O)N2CCCC[C@H]2C(=O)O[C@H]([C@H](C)C[C@@H]2CC[C@@H](OC(=O)NCCOCCOCCOCCOCCOCCOCCOCCOCCC(=O)N3CCc4cc(Cn5nc(-c6ccc7oc(N)nc7c6)c6c(N)ncnc65)ccc4C3)[C@H](OC)C2)C[C@@H](O)[C@H](C)/C=C(\C)[C@@H](O)[C@@H](OC)C(=O)[C@H](C)C[C@H](C)/C=C/C=C/C=C/1C,,phase 1 dose escalation,advanced solid tumour patients,"intravenous, 12 mg weekly, any grade",,AEs causing dose modification,58.3%

# Some of these lines once more:
Compound,tested on,assay,test system,conditions,scale,quantity,result
COc1ccccc1OCCNCC(O)COc1cccc2[nH]c3ccccc3c12 (stereo not shown),African green monkey cells,,,5 days,,CC50,17 µM
CC(C)CC(=O)OC[C@H]1O[C@@](C#N)(c2ccc3c(N)ncnn23)[C@H](O)[C@@H]1O,"Cytochrome P450 2A6 (CYP2A6, Homo sapiens, UniProt P11509)",metabolic stability,recombinant enzyme,1 µM,,intrinsic clearance,0 µL/min/pmol
CN1CC[C@]23c4c5ccc(O)c4O[C@H]2[C@@H](O[C@@H]2O[C@H](C(=O)O)[C@@H](O)[C@H](O)[C@H]2O)C=C[C@H]3[C@H]1C5,,,"rat, whole blood","10 nM, 4 months, -80 °C, long-term storage",,stability bias,-11.8%
COc1cc2c(Oc3ccc4[nH]c(C)cc4c3F)ccnc2cc1OCC1(N)CC1,,,paediatric recurrent refractory sarcoma,12 mg,,Rash incidence,18.2%
